Results gathered from unrelated publications.
± marks the error that the study gave. Values after ≈ are worked out from the molar mass of the structure shown.

| SMILES | test | test system | conditions | how to read | quantity | result |
| --- | --- | --- | --- | --- | --- | --- |
| CC(=O)N[C@@H](CC(C)C)C(=O)N[C@H](C(=O)N[C@@H](Cc1ccccc1)C(=O)N[C@H]1CCSc2c(F)c(F)c(c(F)c2F)SCC[C@@H](C(=O)N[C@@H](CCC(N)=O)C(=O)N[C@@H](CC(C)C)C(=O)N[C@H](C(=O)N[C@@H](CO)C(N)=O)[C@@H](C)O)NC(=O)[C@H](Cc2c[nH]c3ccccc23)NC(=O)[C@H](Cc2ccc(O)cc2)NC(=O)[C@H](CCC(=O)O)NC1=O)[C@@H](C)O | reversed-phase HPLC, C18 | – | N-acetylated peptide | – | HPLC retention time | 16.4 min |
| CC[C@H](C)[C@H](NC(=O)[C@H](CC(N)=O)NC(=O)[C@@H](N)CCSC)C(=O)N[C@@H](CCSC)C(=O)N[C@@H](CC(=O)O)C(=O)N[C@@H](Cc1ccccc1)C(=O)N[C@@H](CC(N)=O)C(=O)N[C@H](C(=O)N[C@@H](CCCCN)C(=O)N[C@@H](CCCCN)C(=O)N[C@@H](CC(C)C)C(=O)N[C@@H](C)C(=O)N[C@@H](C)C(=O)N[C@@H](CC(=O)O)C(=O)N[C@@H](C)C(=O)NCC(=O)N[C@H](C(=O)N[C@@H](Cc1c[nH]c2ccccc12)C(=O)N[C@@H](CC(C)C)C(=O)N[C@@H](CO)C(=O)N[C@@H](CCCNC(=N)N)C(=O)N[C@@H](C)C(=O)N[C@H](C(=O)N[C@@H](CCC(N)=O)C(=O)N[C@@H](Cc1ccccc1)C(=O)N[C@H](C(=O)N[C@@H](CCC(=O)O)C(=O)N[C@@H](CCC(=O)O)C(=O)N[C@@H](CCCCN)C(=O)N[C@@H](CC(C)C)C(=O)NCC(=O)N[C@@H](CCC(N)=O)C(=O)N[C@@H](C)C(N)=O)[C@@H](C)O)C(C)C)[C@@H](C)O)C(C)C | circular dichroism | 100% DOPS liposomes | 1 mM lipid | – | helical content | 50% |
| Cc1ccc(CN2C(=O)/C(=N\c3ccc(Cl)cc3Br)c3ccccc32)cc1 | – | mouse, blood | 100 mg/kg | – | Lym% | 49.1 ± 6.16% |
| O=C([O-])CN1CCN(CC(=O)[O-])CCN(C(CO)C(O)CO)CCN(CC(=O)[O-])CC1.[Dy+3] (centres unmarked) | ICP-MS | cynomolgus monkey, feces | 3 days post-injection | baseline: dose | cumulative fecal excretion | 0.3% |
| COc1cccc(OC)c1-c1cc(C(=O)NC2(C(=O)O)C3CC4CC(C3)CC2C4)nn1-c1ccc(C(=O)NCCNC(=O)[C@H](CCCCNC(=O)[C@H](CC(C)C)NC(=O)C2OC2C(=O)O)NC(=O)CN2CCN(CC(=O)[O-])CCN(CC(=O)[O-])CCN(CC(=O)[O-])CC2)cc1C(C)C.[177Lu+3] (mixture of isomers) | – | mouse HT-29 xenograft | 24 h, biodistribution | baseline: tumour over small intestine | tumour-to-small intestine ratio | 15.1 |
| CC[C@H](C)[C@@H]1NC(=O)[C@H](Cc2ccc(O)cc2)NC(=O)CCCSC[C@@H](C(=O)N(CC(=O)N[C@@H](CC(C)C)C(=O)NCC(N)=O)Cc2ccc(F)cc2)NC(=O)[C@H](CC(N)=O)NC(=O)[C@H](CCC(N)=O)NC1=O | – | human | intranasal, 50 µg repeated doses | – | AEs leading to discontinuation | 0% |
| COc1cccc(OC)c1-c1cc(C(=O)NC2(C(=O)O)C3CC4CC(C3)CC2C4)nn1-c1ccc(C(=O)N(C)CCOCCN(C)C(=O)[C@H](CCCCNC(=O)[C@H](CC(C)C)NC(=O)C2OC2C(=O)O)NC(=O)CN2CCN(CC(=O)[O-])CCN(CC(=O)[O-])CCN(CC(=O)[O-])CC2)cc1C(C)C.[177Lu+3] (mixture of isomers) | – | mouse, HT-29 xenograft | 24 h post injection, biodistribution | baseline: tumour over lung uptake | tumour-to-lung ratio | 1.46 |
| C=CC(=O)Nc1cccc(Cn2ncc3cnc(Nc4cnn(CCOC)c4)nc32)c1 | – | human, both sexes, whole blood | 5 µM, 15 min | – | remaining compound | 94.5% |
| CCc1cc(C)cc(CC)c1-c1c(OC(=O)C2(C(F)(F)F)CCC2)n2n(c1=O)CCOCC2 | – | PBS | 2 h, pH 7.4, 25 °C, 2% DMSO | – | solubility | 281 µM (≈ 131 µg/mL) |
| COc1ccc(Nc2nc(Nc3ccc(OCCOCCOCC[18F])cc3)ncc2Br)cc1 | – | ICR mice, S180 tumour | intravenous, 370 kBq, 120 min | baseline: tumour over blood | uptake ratio | 1.35 |
| [123I]c1ccc2nc(-c3ccc(-n4ccnn4)nc3)cn2c1 | – | male Wistar rat, kidney | intravenous, 4 MBq, 24 h | – | tracer uptake | 0.011 %ID/g |
| COc1cccc(OC)c1-c1cc(C(=O)NC2(C(=O)O)C3CC4CC(C3)CC2C4)nn1-c1ccc(C(=O)N(C)CCCN(C)C(=O)[C@H](CCCCNC(=O)[C@H](CC(C)C)NC(=O)C2OC2C(=O)O)NC(=O)CN2CCN(CC(=O)[O-])CCN(CC(=O)[O-])CCN(CC(=O)[O-])CC2)cc1C(C)C.[177Lu+3] (mixture of isomers) | – | mouse HT-29 xenograft | 24 h, biodistribution | baseline: tumour over large intestine | tumour-to-large intestine ratio | 10.5 |
| O=C(Nc1cnccc1-c1ccc([18F])cc1)c1ccnc(NC(=O)C2CC2)c1 | – | FVB/NJ mice, both sexes, brain | intravenous, 50 min, median, P-gp inhibitor pretreatment, together with: tariquidar 15 mg/kg iv | – | SUV | 0.37 |
| CCC(CC)n1c(Cc2cccs2)nc2cc(C(=O)N[C@@H](CC(=O)O)c3ccccc3)ccc21 | – | male Sprague-Dawley rat, plasma | intravenous, 1 mg/kg | – | Cmax | 1160 ng/mL |
| COC1CN([C@H]2CC[C@H]([C@@]3(C)Oc4c(Cl)cc(C(=O)NCc5c(SC)cc(C)[nH]c5=O)c(C)c4O3)CC2)C1 | RNA-seq, measured: JUP | human cancer patients, whole blood | dose not given, 24 h, PRC2 target gene | baseline: pretreatment sample | log2 fold change | 1.41 |
| COCCN(C)C(C)C(=O)NC(Cc1ccc(-c2ccccc2)cc1)B(O)O (centres unmarked) | – | Caco-2 | – | – | Papp B→A | 25 ×10⁻⁶ cm/s |
| C=CC[C@@H]1/C=C(\C)C[C@H](C)C[C@H](OC)[C@H]2O[C@@](O)(C(=O)C(=O)N3CCCC[C@H]3C(=O)O[C@H](/C(C)=C/[C@@H]3CC[C@@H](O)[C@H](OC)C3)[C@H](C)[C@@H](O)CC1=O)[C@H](C)C[C@@H]2OC | – | kidney transplant recipients, whole blood | oral, dose not given, late phase, limited sampling | – | dose-normalized AUC(0-12h) | 146 ng·h/mL |
| CCCCC/C=C\CCCO[Si](CCCCN1CCCCC1)(OCCC/C=C\CCCCC)OCCC/C=C\CCCCC | – | – | pH 7.5, formulated | – | zeta potential | -0.14 mV |
| CC[C@H](C)[C@@H]1NC(=O)[C@@H](NC(=O)[C@H](CCCNC(=N)N)NC(=O)[C@H](CCCCN)NC(=O)[C@H](Cc2c[nH]c3ccccc23)NC(C)=O)CSC=CCCC[C@@H](C(=O)N[C@@H](CC(C)C)C(=O)N[C@@H](CC(C)C)C(=O)N[C@@H](CCC(N)=O)C(=O)N[C@@H](CCC(=O)O)C(N)=O)NC(=O)[C@H](CCCNC(=N)N)NC(=O)[C@H](CC(C)C)NC1=O | circular dichroism | 10 mM phosphate buffer | pH 7.4, 20 °C | – | helicity | 30% |
| C/C(N)=N/C(=N\S(=O)(=O)c1ccc(C(F)(F)F)cc1)N1C[C@H](c2ccccc2)C(c2ccc(Cl)cc2)=N1 | – | C57BL/6 mouse, male, fat | intravenous, 10 mg/kg | baseline: fat over plasma | tissue/plasma ratio | 6 |
| COc1ccc2nc(NC(=O)c3ccc(C(N)c4ccccc4)cc3)sc2c1 (centres unmarked) | – | CD-1 mice, female, plasma | 10 mg/kg | – | terminal half-life | 4.03 h |
| O=C(O)CCCOc1ccc([18F])cc1-c1cc(-c2ccccc2C(F)(F)F)n(-c2ccccc2)n1 | OLINDA/EXM from mouse data | human adults, thyroid | – | – | absorbed dose | 8.8 µGy/MBq |
| CN([O-])C(=O)CN1CCN(CC(=O)N(C)[O-])CCN(Cc2ccccn2)CC1.[89Zr+4] | – | mouse, spleen | intravenous, 1 h | – | tracer uptake | 0.56 %ID/g |
| C=CC(=O)Nc1cc(Nc2nccc(-c3cn(C)c4ccccc34)n2)c(OC)cc1N(C)CCNC | storage stability | human dried blood spot | 2 h, -80 °C, LLOQ level | – | recovery | 100% |
| CN(O)C(=O)CCC(=O)NCCCN(CCCCN(CCCNC(=O)CCC(=O)N(C)O)C(=O)CCC(=O)N(C)O)C(=O)CCC(=O)N(C)O.[89Zr] | – | mouse, blood | 1 h | – | tracer uptake | 0.8 %ID/g |
| C=C(NC(=O)c1csc(-c2nc3c(cc2O)-c2nc(cs2)C(=O)NC(C(C)O)C(=O)NC(=C(C)OC)c2nc(cs2)C(=O)NC2c4nc(cs4)C(=O)NC(COC(=O)c4c5c6c(cccc6n4O)COC(=O)C(OC4CC(C)(O)C(N(C)C)C(C)O4)C2OC5)c2nc-3cs2)n1)C(N)=O (centres unmarked) | – | ICR mice, Streptococcus pneumoniae ATCC 49169 infected, immunocompromised, blood | intravenous, 4 mg/kg/day three times daily | – | Cmax | 110 ng/mL |

A few entries again:
| SMILES | test | test system | conditions | how to read | quantity | result |
| --- | --- | --- | --- | --- | --- | --- |
| COCCN(C)C(C)C(=O)NC(Cc1ccc(-c2ccccc2)cc1)B(O)O (centres unmarked) | – | Caco-2 | – | – | Papp B→A | 25 ×10⁻⁶ cm/s |
| C=CC[C@@H]1/C=C(\C)C[C@H](C)C[C@H](OC)[C@H]2O[C@@](O)(C(=O)C(=O)N3CCCC[C@H]3C(=O)O[C@H](/C(C)=C/[C@@H]3CC[C@@H](O)[C@H](OC)C3)[C@H](C)[C@@H](O)CC1=O)[C@H](C)C[C@@H]2OC | – | kidney transplant recipients, whole blood | oral, dose not given, late phase, limited sampling | – | dose-normalized AUC(0-12h) | 146 ng·h/mL |
